Published values gathered from unrelated publications.
Lines come from different studies, so protocols differ. Several values in a cell are separate wells, animals, samples, runs or records. pEC50, pIC50, pKd: −log10 of the molar value.
ROCK1: Rho-associated protein kinase 1 (ROCK1, Homo sapiens, UniProt Q13464)
Sequence of UniProt Q13464 (whole entry, looked up): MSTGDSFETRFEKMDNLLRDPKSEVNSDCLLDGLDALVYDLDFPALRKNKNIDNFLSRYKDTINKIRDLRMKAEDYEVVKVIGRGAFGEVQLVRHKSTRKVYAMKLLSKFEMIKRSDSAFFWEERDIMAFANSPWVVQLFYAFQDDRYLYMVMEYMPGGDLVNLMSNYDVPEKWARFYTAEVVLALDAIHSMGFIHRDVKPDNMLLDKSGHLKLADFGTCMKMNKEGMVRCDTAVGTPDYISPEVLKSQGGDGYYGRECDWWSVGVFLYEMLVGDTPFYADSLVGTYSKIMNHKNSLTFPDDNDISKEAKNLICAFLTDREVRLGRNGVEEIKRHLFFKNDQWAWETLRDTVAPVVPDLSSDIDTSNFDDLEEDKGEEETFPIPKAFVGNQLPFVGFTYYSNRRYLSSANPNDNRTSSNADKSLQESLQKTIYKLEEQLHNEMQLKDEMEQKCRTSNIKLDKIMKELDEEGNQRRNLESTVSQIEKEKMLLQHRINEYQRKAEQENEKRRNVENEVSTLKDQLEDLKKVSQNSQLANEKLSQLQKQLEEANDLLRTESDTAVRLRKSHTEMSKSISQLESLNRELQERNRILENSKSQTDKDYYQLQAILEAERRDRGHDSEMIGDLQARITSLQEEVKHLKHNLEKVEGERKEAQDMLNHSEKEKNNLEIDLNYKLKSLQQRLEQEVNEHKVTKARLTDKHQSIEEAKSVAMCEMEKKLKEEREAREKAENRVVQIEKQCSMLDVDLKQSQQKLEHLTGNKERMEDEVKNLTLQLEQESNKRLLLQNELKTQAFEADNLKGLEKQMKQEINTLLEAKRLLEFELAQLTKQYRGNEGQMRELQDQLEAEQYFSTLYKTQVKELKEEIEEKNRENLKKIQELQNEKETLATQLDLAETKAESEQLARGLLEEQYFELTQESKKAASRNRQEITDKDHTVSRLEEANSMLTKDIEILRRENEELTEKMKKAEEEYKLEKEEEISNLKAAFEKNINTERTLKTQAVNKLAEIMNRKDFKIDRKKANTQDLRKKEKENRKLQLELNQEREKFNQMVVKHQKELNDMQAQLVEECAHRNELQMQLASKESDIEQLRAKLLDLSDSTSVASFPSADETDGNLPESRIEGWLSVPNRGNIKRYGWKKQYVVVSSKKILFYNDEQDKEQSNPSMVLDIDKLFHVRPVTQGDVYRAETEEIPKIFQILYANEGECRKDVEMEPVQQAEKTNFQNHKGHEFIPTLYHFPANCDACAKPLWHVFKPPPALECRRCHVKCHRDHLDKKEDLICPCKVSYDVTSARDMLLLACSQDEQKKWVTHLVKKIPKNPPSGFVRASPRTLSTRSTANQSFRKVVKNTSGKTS
GBA1 R534H: Lysosomal acid glucosylceramidase (GBA1, Homo sapiens, UniProt P04062, R534H)
Sequence of UniProt P04062 (whole entry, unmodified, looked up): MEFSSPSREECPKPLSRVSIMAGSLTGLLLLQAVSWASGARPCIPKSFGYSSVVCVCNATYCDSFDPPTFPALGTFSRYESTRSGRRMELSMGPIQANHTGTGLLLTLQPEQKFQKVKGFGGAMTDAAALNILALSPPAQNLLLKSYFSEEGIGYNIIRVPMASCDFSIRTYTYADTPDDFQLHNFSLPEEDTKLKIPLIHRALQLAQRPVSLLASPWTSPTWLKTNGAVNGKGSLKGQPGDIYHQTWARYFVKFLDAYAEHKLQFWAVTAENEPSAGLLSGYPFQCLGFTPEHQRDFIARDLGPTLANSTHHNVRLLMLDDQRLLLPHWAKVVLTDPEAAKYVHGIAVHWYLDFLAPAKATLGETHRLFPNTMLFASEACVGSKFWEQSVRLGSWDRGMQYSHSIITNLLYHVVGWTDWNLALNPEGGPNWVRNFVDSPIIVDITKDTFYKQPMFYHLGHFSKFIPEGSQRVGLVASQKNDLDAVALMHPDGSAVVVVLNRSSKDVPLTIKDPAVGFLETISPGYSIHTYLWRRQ
Sequence of UniProt P68106 (whole entry, looked up): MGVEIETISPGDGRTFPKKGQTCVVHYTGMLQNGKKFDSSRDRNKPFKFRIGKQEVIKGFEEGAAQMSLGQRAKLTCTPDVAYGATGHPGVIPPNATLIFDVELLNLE
Sequence of UniProt P43220 (whole entry, unmodified, looked up): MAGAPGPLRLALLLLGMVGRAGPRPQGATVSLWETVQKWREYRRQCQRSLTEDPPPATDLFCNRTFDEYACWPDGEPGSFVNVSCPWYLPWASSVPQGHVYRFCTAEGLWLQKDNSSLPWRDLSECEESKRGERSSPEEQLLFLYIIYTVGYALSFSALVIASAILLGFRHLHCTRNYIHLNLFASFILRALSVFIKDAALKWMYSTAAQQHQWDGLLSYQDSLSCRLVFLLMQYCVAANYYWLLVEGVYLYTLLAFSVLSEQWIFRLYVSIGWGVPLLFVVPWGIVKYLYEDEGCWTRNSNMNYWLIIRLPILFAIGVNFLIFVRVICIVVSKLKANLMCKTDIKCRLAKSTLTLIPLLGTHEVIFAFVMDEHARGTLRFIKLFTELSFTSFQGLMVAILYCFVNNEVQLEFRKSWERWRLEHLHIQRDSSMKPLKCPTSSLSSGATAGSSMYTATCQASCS
Sequence of UniProt Q53HV7 (whole entry, looked up): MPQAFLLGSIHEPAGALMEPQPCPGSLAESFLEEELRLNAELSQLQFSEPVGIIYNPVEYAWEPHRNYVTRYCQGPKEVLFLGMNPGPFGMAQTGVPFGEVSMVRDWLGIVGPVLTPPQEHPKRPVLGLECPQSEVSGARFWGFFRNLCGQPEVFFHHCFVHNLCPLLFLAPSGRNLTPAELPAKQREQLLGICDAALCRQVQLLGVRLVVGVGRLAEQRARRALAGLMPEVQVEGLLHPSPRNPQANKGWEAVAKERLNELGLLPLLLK

O=C1[C@@H]2CCC[C@H]([C@@H](C(O)CO)CN1Cc1ccccn1)N2S(=O)(=O)c1cc(Cl)cc(Cl)c1 (some centres unmarked)
pKd (Peptidyl-prolyl cis-trans isomerase FKBP1B (Homo sapiens, UniProt P68106); ligand displacement, FP): 8.49

CSCC[C@H](NC(=O)[C@H](CCC(N)=O)NC(=O)[C@H](CCCCN)NC(=O)[C@H](CCCNC(=N)N)NC(=O)[C@H](Cc1ccc(O)cc1)NC(=O)[C@H](CCCNC(=N)N)NC(=O)[C@H](CO)NC(=O)[C@H](Cc1ccc(O)cc1)NC(=O)[C@H](CO)NC(=O)[C@H](CC(=O)O)NC(=O)[C@@H](NC(=O)[C@@H](N)Cc1ccccc1)[C@@H](C)O)C(=O)N[C@@H](C)C(=O)N[C@H](C(=O)N[C@@H](CCCCN)C(=O)N[C@@H](CCCCn1cc(C[C@H](NC(=O)CNC(=O)[C@H](CO)NC(=O)[C@H](CCCNC(=N)N)NC(=O)[C@H](CO)NC(=O)[C@H](CC(C)C)NC(=O)[C@H](CC(C)C)NC(=O)CNC(=O)[C@H](C)NC(=O)[C@H](CC(C)C)NC(=O)[C@H](CCCNC(=N)N)NC(=O)[C@H](Cc2c[nH]cn2)NC(=O)[C@@H](NC(=O)[C@@H](N)C(C)C)[C@@H](C)O)C(=O)N[C@H](C(=O)N[C@H](C(=O)N[C@@H](CCCCN)C(=O)N[C@@H](CC(N)=O)C(=O)N[C@@H](CC(N)=O)C(=O)N[C@@H](Cc2ccccc2)C(=O)N[C@H](C(=O)N2CCC[C@H]2C(=O)N[C@H](C(=O)N[C@@H](CC(N)=O)C(=O)N[C@H](C(=O)NCC(=O)N[C@@H](CO)C(=O)N[C@@H](CCCCN)C(=O)N[C@@H](C)C(=O)N[C@@H](Cc2ccccc2)C(N)=O)C(C)C)[C@@H](C)O)C(C)C)C(C)C)C(C)C)nn1)C(=O)N[C@@H](Cc1ccc(O)cc1)C(=O)N[C@@H](CC(C)C)C(=O)N[C@@H](C)C(=O)N[C@@H](C)C(=O)N[C@H](C(=O)N[C@@H](CC(C)C)C(=O)NCC(=O)N[C@@H](CCCCN)C(=O)N[C@@H](CCCNC(=N)N)C(=O)N[C@@H](Cc1ccc(O)cc1)C(=O)N[C@@H](CCCCN)C(=O)N[C@@H](CCC(N)=O)C(=O)N[C@@H](CCCNC(=N)N)C(=O)N[C@H](C(=O)N[C@@H](CCCCN)C(=O)N[C@@H](CC(N)=O)C(=O)N[C@@H](CCCCN)C(N)=O)C(C)C)C(C)C)C(C)C
Kb (PACAP-responsive receptors, rat; cAMP accumulation, antagonist; rat spinal cord; together with: VIP): 0.407 µM

CC1CN(CCOCCSc2ccc(Cl)cc2)CC(C)O1.O=C(O)C(=O)O (centres unmarked)
translation activity (Trypanosoma cruzi; reporter mRNA translation, inhibitor, refers to: Renilla luciferase mRNA; cell-free extract; concentration not given, test 1; baseline: positive over negative control): 113% and 114%

Cc1nn(-c2cccc(N)c2)c(=O)c2cnc(Nc3ccc(N4CCNCC4)cc3)nc12
pIC50 (ROCK1; kinase activity, inhibitor, SelectScreen kinase profiling): < 5.00

CCCCCCN1C[C@H](O)[C@@H](O)[C@H](O)[C@@H]1CO
pIC50 (GBA1 R534H; inhibitor, 4MU-β-D-glucopyranoside; together with: 4MU-β-D-glucopyranoside): 3.00

COc1cc(C2C(NC(=O)c3ccc(NC(=O)OC(C)(C)C)cc3)(C(=O)O)C(c3ccc(OC(=O)c4cccs4)c(OC)c3)C2(NC(=O)c2ccc(NC(=O)OC(C)(C)C)cc2)C(=O)O)ccc1OC(=O)c1cccs1 (centres unmarked)
pEC50 (GLP1R (Homo sapiens, UniProt P43220, F381A); cAMP, agonist): 7.80

Cc1c[nH]c2nccc(-c3ccc(C(=O)N[C@@H]4c5c(F)cc(C(F)F)cc5C[C@@H]4O)cn3)c12
pKd (ROCK1; binding, competition with immobilised ligand): 8.27

OC[C@@H]1[C@@H](O)[C@H](O)[C@@H](O)CN1CCCCCOCc1ccc(-c2ccccc2)cn1
pIC50 (GBA1 R534H; inhibitor, 4MU-β-D-glucopyranoside; together with: 4MU-β-D-glucopyranoside): 5.82

CN1CCc2c(sc3c2c(=O)n(-c2ccccc2)c2nnc(SCc4ccccc4)n32)C1
translation activity (Trypanosoma cruzi; reporter mRNA translation, inhibitor, refers to: Renilla luciferase mRNA; cell-free extract; concentration not given, test 1; baseline: positive over negative control): 110% and 106%

OC[C@@H]1[C@@H](O)[C@H](O)[C@@H](O)CN1CCCCCOCC1CCC1
pIC50 (GBA1 R534H; inhibitor, 4MU-β-D-glucopyranoside; together with: 4MU-β-D-glucopyranoside): 4.89

CSCC[C@H](NC(=O)[C@H](CCC(N)=O)NC(=O)[C@H](CCCCN)NC(=O)[C@H](CCCNC(=N)N)NC(=O)[C@H](Cc1ccc(O)cc1)NC(=O)[C@H](CCCNC(=N)N)NC(=O)[C@H](CO)NC(=O)[C@H](Cc1ccc(O)cc1)NC(=O)[C@H](CO)NC(=O)[C@H](CC(=O)O)NC(=O)[C@@H](NC(=O)[C@@H](N)Cc1ccccc1)[C@@H](C)O)C(=O)N[C@@H](C)C(=O)N[C@H](C(=O)N[C@@H](CCCCN)C(=O)N[C@@H](CCCCN)C(=O)N[C@@H](Cc1ccc(O)cc1)C(=O)N[C@@H](CC(C)C)C(=O)N[C@@H](C)C(=O)N[C@@H](C)C(=O)N[C@H](C(=O)N[C@@H](CC(C)C)C(=O)NCC(=O)N[C@@H](CCCCN)C(=O)N[C@@H](CCCNC(=N)N)C(=O)N[C@@H](Cc1ccc(O)cc1)C(=O)N[C@@H](CCCCN)C(=O)N[C@@H](CCC(N)=O)C(=O)N[C@@H](CCCCn1cc(C[C@H](NC(=O)CNC(=O)[C@H](CO)NC(=O)[C@H](CCCNC(=N)N)NC(=O)[C@H](CO)NC(=O)[C@H](CC(C)C)NC(=O)[C@H](CC(C)C)NC(=O)CNC(=O)[C@H](C)NC(=O)[C@H](CC(C)C)NC(=O)[C@H](CCCNC(=N)N)NC(=O)[C@H](Cc2c[nH]cn2)NC(=O)[C@@H](NC(=O)[C@@H](N)C(C)C)[C@@H](C)O)C(=O)N[C@H](C(=O)N[C@H](C(=O)N[C@@H](CCCCN)C(=O)N[C@@H](CC(N)=O)C(=O)N[C@@H](CC(N)=O)C(=O)N[C@@H](Cc2ccccc2)C(=O)N[C@H](C(=O)N2CCC[C@H]2C(=O)N[C@H](C(=O)N[C@@H](CC(N)=O)C(=O)N[C@H](C(=O)NCC(=O)N[C@@H](CO)C(=O)N[C@@H](CCCCN)C(=O)N[C@@H](C)C(=O)N[C@@H](Cc2ccccc2)C(N)=O)C(C)C)[C@@H](C)O)C(C)C)C(C)C)C(C)C)nn1)C(=O)N[C@H](C(=O)N[C@@H](CCCCN)C(=O)N[C@@H](CC(N)=O)C(=O)N[C@@H](CCCCN)C(N)=O)C(C)C)C(C)C)C(C)C
Kb (PACAP-responsive receptors, rat; cAMP accumulation, antagonist; rat spinal cord; together with: VIP): 0.417 µM

OC[C@@H]1[C@@H](O)[C@H](O)[C@@H](O)CN1CCCCCOCc1ccc(-c2ccc(Br)cc2)cc1
pIC50 (GBA1 R534H; inhibitor, 4MU-β-D-glucopyranoside; together with: 4MU-β-D-glucopyranoside): 5.59

COc1cc2nc(Cl)nc(Nc3ccc(Oc4cccc(-c5ccccc5)c4)cc3)c2cc1OC
AC50 (SMUG1 (Homo sapiens, UniProt Q53HV7); enzyme activity, activator, fluorescence): 0.6 µM

CCc1nc2cc3ccccc3cc2cc1C(=O)N1CCC[C@H]1C(=O)N[C@@H](C/C=C\C[C@H](NC(=O)[C@@H]1CCCN1C(=O)c1cc2cc3ccccc3cc2nc1CC)C(=O)N[C@@H](CCCCN)C(=O)NCCCN)C(=O)N[C@@H](CCCCN)C(=O)NCCCN
pKd ((CUG)4 RNA; SPR): 7.59
